Experimental data from different studies.
A part holds a random share of what one study measured. Changes are numbered by the printed parent chain.

Series 1 — target: CCNE1, cyclin fold, Cln2 fusion (human); technique: yeast growth competition, sequencing; medium: yeast; setting: strong parent motif; relative to: not given; reading: higher = stronger binding
Starting sequence: RBL1 docking peptide (human); GSAKRRLFGEDPP; partner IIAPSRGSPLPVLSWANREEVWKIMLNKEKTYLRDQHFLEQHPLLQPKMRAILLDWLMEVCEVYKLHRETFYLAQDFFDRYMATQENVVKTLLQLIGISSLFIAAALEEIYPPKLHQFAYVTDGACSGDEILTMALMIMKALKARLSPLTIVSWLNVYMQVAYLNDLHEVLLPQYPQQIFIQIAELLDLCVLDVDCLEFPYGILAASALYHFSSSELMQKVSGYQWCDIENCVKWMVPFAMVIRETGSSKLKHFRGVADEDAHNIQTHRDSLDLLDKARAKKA
Variant	normalised enrichment score
GSAKRRLFGNDPP [E10N]	5.85
GSAKRRLFGMDPP [E10M]	4.69
GSAKRRLFQEDPP [G9Q]	6.93
GSAKRRLVGEDPP [F8V]	0.465
GSAKRRLMGEDPP [F8M]	0.35
GSAKRRLFGEDPS [P13S]	5.56
GSAKRRLFGEDYP [P12Y]	6.72
GSAKRGLFGEDPP [R6G]	-0.133
GSAKRRLGGEDPP [F8G]	0.15
GSAKRRLHGEDPP [F8H]	-0.0731

Series 2 — technique: protein-binding microarray; form: double-stranded DNA, one strand shown; medium: in vitro; concentration: 250 nM; setting: 60-bp whole probe; with: salmon DNA 0.4 mg/ml; relative to: random background probes; reading: higher = stronger binding; constant ends, left off below: GCCTAGCAC … GTCTTGATTCGCTTGACGCTGCTG
Target: Interferon regulatory factor 7, full length, phosphomimetic (IRF7, Homo sapiens, UniProt Q92985, residues 1-503, S101K/S471D/S472D/S475D/S476D/S477D/S483D/S484D/S487D)
UniProt Q92985, sequence (whole entry, unmodified, looked up): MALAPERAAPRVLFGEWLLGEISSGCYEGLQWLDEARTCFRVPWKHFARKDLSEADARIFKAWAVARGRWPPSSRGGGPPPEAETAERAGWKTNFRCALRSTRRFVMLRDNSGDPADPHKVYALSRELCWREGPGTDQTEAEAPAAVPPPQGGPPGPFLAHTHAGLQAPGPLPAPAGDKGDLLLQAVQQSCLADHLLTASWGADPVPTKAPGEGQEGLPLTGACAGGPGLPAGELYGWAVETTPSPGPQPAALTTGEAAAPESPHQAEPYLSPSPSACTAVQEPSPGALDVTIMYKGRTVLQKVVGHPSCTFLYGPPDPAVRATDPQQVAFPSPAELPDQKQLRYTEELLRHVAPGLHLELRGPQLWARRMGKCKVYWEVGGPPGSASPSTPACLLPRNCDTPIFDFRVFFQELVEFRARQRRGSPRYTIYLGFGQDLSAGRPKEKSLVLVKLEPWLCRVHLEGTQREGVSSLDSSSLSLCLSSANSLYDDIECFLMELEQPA
Oligonucleotide	log fluorescence
TCATCTTTCCTTACTTCACTGTGCTAG	1.9 z-score
GACGATCTCAGTCTCGAAACGTGCTAG	0.734 z-score
TCAATGTTCACTATTTAACTGTGCTAG	0.665 z-score
TCATACATGGGTTTTCAGACTGTGCTA	-0.0814 z-score
CCTCCTCTCTCTTTCCACTTGTGCTAG	0.637 z-score
TTAGGTCTCCTTTTCCGTTAGTGCTAG	1.78 z-score
TTGGGTCTCGGTCTCGGTTAGTGCTAG	2.11 z-score
GACGATTTCTGTTCCGAGACGTGCTAG	1.16 z-score
GACGGTATCCTTTGCCTGACGTGCTAG	-0.194 z-score

Series 3 — technique: RNA Bind-n-Seq; form: RNA; medium: in vitro; concentration: 365 nM; relative to: no-protein control; reading: higher = stronger binding
Target: RNA binding protein fox-1 homolog 2, RRM domain, GST-SBP tag (RBFOX2, Homo sapiens, UniProt O43251-10, residues 100-194)
Setting: natural RNA segment, single round, ends assumed
Target sequence (chain): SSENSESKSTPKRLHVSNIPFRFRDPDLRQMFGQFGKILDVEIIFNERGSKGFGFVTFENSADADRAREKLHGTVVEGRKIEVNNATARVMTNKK
Oligonucleotide	RBNS enrichment (R)
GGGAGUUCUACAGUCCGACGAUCCCACAGUUUCUUGACUGGAGGCCAUCAACCCUCUUGGUUGAGGCCUUGUUCUGAGCCCUGACAUGUGCUUGGGCACUGGUGGGCCUGGGCUUCUGAGGUGGCCUCCUGCCUGGAAUUCUCGGGUGCCAA	0.349
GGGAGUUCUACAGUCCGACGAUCUUCUAGCAGAGGCAAGAAUACAUAUUCAUAUACGCUUACUUAUGAAUUACCAUUUUAACAUUUAGAUAACAUGAAAUAUGGCCCUCUUGAAUUCUUGCUUUUAAGUUCCUUGGAAUUCUCGGGUGCCAA	0.599
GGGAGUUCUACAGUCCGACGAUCCACUGCUACUUUGGCGUUAUUACUGUGUUCUCAGAAACUCGUUGUGCACCACUAGGAAUUAGUAGUAGAAAAAAAAAAACAAUAACAAAAAAAAAAAACAACUGGAAAUGUGGAAUUCUCGGGUGCCAA	0.722
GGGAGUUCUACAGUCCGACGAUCAAGAAAAAUUGUUCUCUAACCAGGAUUGUAACAAAAGUGUAAAUACUGUUUCAGAGUUGAGAGUUGGUGGUGCAAAUAUGUAUAUAAUGAACUGUAUUUUUACAAUGAUCUGGAAUUCUCGGGUGCCAA	0.673
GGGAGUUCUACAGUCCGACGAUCCUUUAAAAGGGCGACAACUGACUCACGAGAUGGCAACCACCUGGAGCCUGUUUGGGGAGACCACCCUGUACCCGUGACUUUCGUUUUUAAUAAUAAUAAUAAUAAUAAUAUGGAAUUCUCGGGUGCCAA	0.394
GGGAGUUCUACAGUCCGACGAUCAUCUGGGCAUGUCUGCACAAGCAAUGCAACGCUGGGCCACUGCUGCCCGUCUGCCUCCCCGGCACGGCACGGCUCCGCACGCAACCUAAGCGUGCCACCACGGUCUCUUAUGGAAUUCUCGGGUGCCAA	0.725

Single results of other studies
Substance	target	assay	system	setting	how to read	measurement	value
PhoQ, residues 284 288 289 292 302 303 GLASVI	PhoP, residues 12 14 15 18 19 IFFTR (Escherichia coli, UniProt P23836)	Sort-seq, refers to: YFP reporter	E. coli	PhoQ-PhoP variant library, with: 10 µM Mg2+	relative to: high Mg2+ state, higher = stronger signaling	fold induction	6.74

Some of these lines once more (series 1):
Variant	normalised enrichment score
GSAKRRLFQEDPP [G9Q]	6.93
GSAKRRLVGEDPP [F8V]	0.465
GSAKRRLMGEDPP [F8M]	0.35
